Results pooled from the literature.
Parts stem from different laboratories: compare values within a part only.

Study 1
Target: Interferon regulatory factor 5, full length, phosphomimetic (IRF5, Homo sapiens, UniProt Q13568-2, residues 1-514, S451D/S453D/S456D/S462D)
Method: protein-binding microarray
Form: double-stranded DNA, one strand shown
Medium: in vitro
Concentration: 940 nM top
Notes: 60-bp whole probe
Together with: salmon DNA 0.4 mg/ml
Reference: random background probes
Direction: higher = stronger binding
Constant ends, left off below: GCCTAGCAC … GTCTTGATTCGCTTGACGCTGCTG
Oligonucleotide | fitted relative affinity
AATATTCTGCTTTGCAATAAGTGCTAG | 0.0604 z-score
TTAGATCTTAGTATCGATTAGTGCTAG | 5.13 z-score
TTAAATATCAGACTGGATTAGTGCTAG | -0.436 z-score
GAAGGTCACAAAGACTTCATGTGCTAG | -0.353 z-score
TCATGTCTGGGTCTTGGACTGTGCTAG | -0.221 z-score
TCACATTGCTGCCCTCAGACTGTGCTA | 0.269 z-score
GACGATCTCCTACTGCTGACGTGCTAG | 0.378 z-score
GACGGCCTGGGTTTCGGGACGTGCTAG | 2.99 z-score

Study 2
Target: Centromere-binding protein 1, full length, N-terminal tag (CBF1, Saccharomyces cerevisiae, UniProt P17106, residues 1-351)
Chain of UniProt P17106 (whole entry, looked up): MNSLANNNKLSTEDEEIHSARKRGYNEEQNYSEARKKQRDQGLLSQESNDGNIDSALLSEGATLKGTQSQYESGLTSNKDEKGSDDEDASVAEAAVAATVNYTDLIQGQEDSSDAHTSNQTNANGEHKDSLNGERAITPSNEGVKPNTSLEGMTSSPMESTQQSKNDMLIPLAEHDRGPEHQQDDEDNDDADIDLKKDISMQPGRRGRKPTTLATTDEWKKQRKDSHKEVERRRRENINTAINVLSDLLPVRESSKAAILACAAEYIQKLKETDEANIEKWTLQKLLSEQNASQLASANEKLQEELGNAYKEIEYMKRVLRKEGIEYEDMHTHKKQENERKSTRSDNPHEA
Method: protein-binding microarray
Form: double-stranded DNA, one strand shown
Medium: in vitro
Concentration: 0.8 µM
Notes: whole 60-bp probe, no competitor
Direction: higher = stronger binding
Constant ends, left off below: … GTCTTGATTCGCTTGACGCTGCTG
Oligonucleotide | fluorescence intensity
CTAAACATAACGATAAACGTGGTATAGTTTTCGTTC | 619 a.u.
GAAGAAAAGTTCGGTAACATCAAATCAGTGCTTTAG | 522 a.u.
CTAAACCGCCTTTGTCACACCATCCGGTAAGTATTC | 601 a.u.
GAAATACCACTCAAGAACGTGCATAGATCCGCATAG | 604 a.u.
CTAATAGGAACTTCTCACGCAATAATTTTAAAGTTC | 509 a.u.

Study 3
Cell line: HEK-293T/ACE2
Read-out: pseudovirus infection
Organism: VSV pseudotyped with SARS-CoV-2 spike
Concentration: concentration not given
Reference: vehicle-treated
SMILES | GFP-positive cells [%]
COc1cc2nccc(Oc3ccc(NC(=O)C4(C(=O)Nc5ccc(F)cc5)CC4)cc3)c2cc1OC.O=C(O)C[C@H](O)C(=O)O | 75.2
C=CC(=O)N1CCC[C@@H](n2nc(-c3ccc(Oc4ccccc4)cc3)c3c(N)ncnc32)C1 | 145
CC[C@H](C)[C@H]1O[C@]2(CC[C@@H]1C)C[C@@H]1C[C@@H](C/C=C(\C)[C@@H](O[C@H]3C[C@H](OC)[C@@H](O[C@H]4C[C@H](OC)[C@@H](O)[C@H](C)O4)[C@H](C)O3)[C@@H](C)/C=C/C=C3\CO[C@@H]4[C@H](O)C(C)=C[C@@H](C(=O)O1)[C@]34O)O2 | 33.8
OC[C@H]1O[C@@H](c2ccc(Cl)c(Cc3ccc(O[C@H]4CCOC4)cc3)c2)[C@H](O)[C@@H](O)[C@@H]1O | 104
CC(CN(C)C)CN1c2ccccc2Sc2ccccc21.CC(CN(C)C)CN1c2ccccc2Sc2ccccc21.O=C(O)C(O)C(O)C(=O)O (centres unmarked) | 32.7

Study 4
Target: Fragile X messenger ribonucleoprotein 1, C-terminal low-complexity region (Fmr1, Mus musculus, UniProt P35922)
Method: RNA Bind-n-Seq
Form: RNA
Medium: in vitro
Concentration: 200 nM
Notes: whole 134-nt RNA, ends assumed
Together with: 150 mM KCl
Reference: input library
Direction: higher = stronger binding
Constant ends, left off below: GGGAGUUCUACAGUCCGACGAUC … UGGAAUUCUCGGGUGUCAAGG
Oligonucleotide | log2 enrichment
GUCCUGUGCUACACAUCGUAUGUACCGAAUCGGUUUUUGGAAAAAAAGGUUUUUUUGGAAAGUAUUAUGUUACGCCGUUCGGAUCUGCAC | -1.03
CCUCAAGUCCUGUGCUACACAUCGUAUGUACCGAAUCGGGCGGCGGGGCGGGAAAGUAUUAUGUUACGCCGUUCGGAUCUGCACUUCCAG | 1.07
UUAGAAGAAUUUGGAAGGCCUUAAAUAUAGUAGCUUAGUUUGAAAAAUGUGAAGGACUUUCGUAACGGAAGUAAUUCAAGAUCAAGAGUA | -2.31
AGUCCUGUGCUACACAUCGUAUGUACCGAAUCGGGAAAAAAAGGGAAAGGGAAAGGGAAAGUAUUAUGUUACGCCGUUCGGAUCUGCACU | 0.0618
AGUCCUGUGCUACACAUCGUAUGUACCGAAUCGGGGAAAAGGGAAAAGGGGAAAAGGGAAAGUAUUAUGUUACGCCGUUCGGAUCUGCAC | 0.41
CUGUGCUACACAUCGUAUGUACCGAAUCAAACCCCCCCAAACCCCCCCAAAUUUUUUUAAAAAAGUAUUAUGUUACGCCGUUCGGAUCUG | -0.232
UGGGAGGUGGAUUUUGUUUAUUUUUUUAGCUCAUUUCCAGGGGUGGGAAUUUUUUUUUACUAUGUGUCAUGAAUAAAGUUGUUUUUGAAA | 0.246
AGUCCUGUGCUACACAUCGUAUGUACCGAAUCGGCCCCCCGGCCCCCCGGCCCCCCGGAAAGUAUUAUGUUACGCCGUUCGGAUCUGCAC | 0.227

Study 5
Target: Replicase polyprotein 1ab, nsp13 helicase (rep, Severe acute respiratory syndrome coronavirus 2, UniProt P0DTD1)
Mode: inhibitor
Concentration: 20 µM
SMILES | inhibition [%]
O[C@H]1[C@H]2[C@H](O)CCCN2C[C@H]1O | -0.69
NC(=O)C[S@@+]([O-])C(c1ccccc1)c1ccccc1 | 5.9
CC(C)c1cc(C(C)C)c(-c2csc(N(CCN(C)C)Cc3cccnc3)n2)c(C(C)C)c1 | 1.45
N[C@@H]1CN(c2c(F)cc3c(=O)c(C(=O)O)cn([C@@H]4C[C@@H]4F)c3c2Cl)CC12CC2 | 3.29
O=[N+]([O-])/N=C1\NCCN1Cc1ccc(Cl)nc1 | -6.08
CCOc1ccccc1C(N)=O | 6.23
CCC(=O)c1ccc(O)cc1 | -0.35
COc1ccccc1N1CCN(CCN(C(=O)C2CCCCC2)c2ccccn2)CC1 | -1.92
Cc1ccc(Cl)c(Nc2ccccc2C(=O)O)c1Cl | 8.57
Cc1cc(O)cc2c1O[C@](C)(CCC[C@H](C)CCC[C@H](C)CCCC(C)C)CC2 | -2.4
CN(C(=O)Cc1ccc(Cl)c(Cl)c1)[C@H](CN1CCCC1)c1ccccc1 | -1.8
O=C1c2c(O)cc(O)cc2O[C@H](c2cc(O)c(O)c(O)c2)[C@H]1O | 1.85
NCCC[C@H](N)C(=O)O | 4.52
CCCCOc1ccc(CC/C=C2\SC(=O)N(CCN)C2=O)cc1 | 43.3
CCCC(=O)c1cc(F)ccc1OCC(O)CNC(C)(C)C (centres unmarked) | -5.04
O=C(c1c(O)c2ccc(Cl)cc2[nH]c1=O)C1CC1 | 1.34
Fc1ccc(Cl)cc1-c1nc(Nc2ccncc2)c2nccnc2n1 | 9.39
FC(F)(F)c1ccc(CNc2ccc(Cc3c[nH]c4ncc(Cl)cc34)cn2)cn1 | 4.74
CCCN(CCC)C1CCc2ccc(O)cc2C1 (centres unmarked) | 4.72
COc1cc(F)c(C(C)C)cc1-c1ccc(C(F)(F)F)cc1CN1C(=O)O[C@H](c2cc(C(F)(F)F)cc(C(F)(F)F)c2)[C@@H]1C | 4.05
CNC(=O)c1ccc2c(c1)CCO[C@H]2CCN1CCN(c2ccc(C(N)=O)cc2)CC1 | 5.26
CC(=O)SCC(Cc1ccccc1)C(=O)NCC(=O)OCc1ccccc1 (centres unmarked) | 2.95
CC1c2ccccc2CN1CC1=NCCN1 (centres unmarked) | 2.79
COc1cccc([C@H](O)C2CCN(CCc3ccc(F)cc3)CC2)c1OC | -0.91
CC(C)(C)c1ccc(S(=O)(=O)NCc2ccc(C(=O)Nc3cccnc3)cc2)cc1 | 13.8

Study 6
Target: Replicase polyprotein 1ab, main protease (rep, Severe acute respiratory syndrome coronavirus 2, UniProt P0DTD1)
Read-out: enzyme activity
Mode: inhibitor
Concentration: 20 µM
Compound | inhibition
C[C@@H](CN1CC(=O)NC(=O)C1)N1CC(=O)NC(=O)C1 | -22.9%
O=C(O)CCCCCCCCCCCCCCc1ccc(I)cc1 | 4%
CC[C@]12C=CCN3CC[C@@]4(c5cc([C@@]6(C(=O)OC)C[C@@H]7C[C@@H](C(C)(F)F)C[N@](CCc8c6[nH]c6ccccc86)C7)c(OC)cc5N(C)[C@H]4[C@@](O)(C(=O)OC)[C@@H]1OC(C)=O)[C@@H]32 | -14.4%
CO/N=C(\C(=O)N[C@@H]1C(=O)N2C(C(=O)O)=C(CSC(=O)c3ccco3)CS[C@H]12)c1csc(N)n1 | -4.24%
O=[N+]([O-])/C=C/c1ccc2c(c1)OCO2 | 6.55%

A few entries again (study 5):
SMILES | inhibition [%]
NC(=O)C[S@@+]([O-])C(c1ccccc1)c1ccccc1 | 5.9
CCCC(=O)c1cc(F)ccc1OCC(O)CNC(C)(C)C (centres unmarked) | -5.04
FC(F)(F)c1ccc(CNc2ccc(Cc3c[nH]c4ncc(Cl)cc34)cn2)cn1 | 4.74
O=C1c2c(O)cc(O)cc2O[C@H](c2cc(O)c(O)c(O)c2)[C@H]1O | 1.85
CC1c2ccccc2CN1CC1=NCCN1 (centres unmarked) | 2.79
CC(C)c1cc(C(C)C)c(-c2csc(N(CCN(C)C)Cc3cccnc3)n2)c(C(C)C)c1 | 1.45
CC(C)(C)c1ccc(S(=O)(=O)NCc2ccc(C(=O)Nc3cccnc3)cc2)cc1 | 13.8
